# Measured values pooled from the literature.
# Lines come from different studies, so protocols differ. Several values in a cell are separate wells, animals, samples, runs or records.
# Cell line: HeLa
Compound,assay,conditions,measurement,value
CCC(=CCc1c(O)cc2c(c1O)C(=O)CC(c1ccc(O)c(OC)c1)O2)CC (centres unmarked),"cell growth or viability, MTT","12.5 µM, 48 h",inhibition,54.9%
CC(=O)N[C@@H](CC(C)C)C(=O)N[C@H]1CSSC[C@@H](C(=O)N[C@@H](CCCNC(=N)N)C(N)=O)NC(=O)[C@H](CC(C)C)NC(=O)[C@H](CCCNC(=N)N)NC(=O)[C@H](CCCNC(=N)N)NC(=O)[C@H](CC(C)C)NC(=O)[C@H](CC(C)C)NC(=O)[C@H](CCCNC(=N)N)NC(=O)[C@@H](NC(=O)[C@H](CC(C)C)NC(C)=O)CSSC[C@@H](C(=O)N[C@@H](CCCNC(=N)N)C(N)=O)NC(=O)[C@H](CC(C)C)NC(=O)[C@H](CCCNC(=N)N)NC(=O)[C@H](CCCNC(=N)N)NC(=O)[C@H](CC(C)C)NC(=O)[C@H](CC(C)C)NC(=O)[C@H](CCCNC(=N)N)NC1=O,"cell penetration, flow cytometry",3 h,EC50,0.0617 µM
CN1CC(COc2cccc3c(NCc4ccccc4)cc(Cl)nc23)OC1=O (centres unmarked),"splicing reporter, measured: GLA","10 µM, 18 h",GFP/RFP ratio,3.91
COc1ccc(COC[C@](O)(CNCc2ccccc2)[C@@H]2CC[C@@H](C)C[C@H]2OCc2ccc(OC)cc2)cc1,"cell growth or viability, MTT","30 µM, 72 h",inhibition,98.6%
O=C1NCC(COc2cccc3c(NCc4ccsc4)nc(Cl)nc23)O1 (centres unmarked),"splicing reporter, measured: GLA","10 µM, 18 h",GFP/RFP ratio,3.38
CC(C)(C)c1ccc([C@H](O)C[C@H](CO)NC(=O)CCCCCOc2ccc3ccccc3c2)cc1,"CERT activity, HPLC-MS/MS lipidomics, measured: sphingomyelin 20","1 µM, 24 h, not cell-number normalised",sphingomyelin level,3110 pmol/sample and 2000 pmol/sample and 3660 pmol/sample
Cc1c(Cl)c(=O)oc2cc(OCCCCCCSC#N)ccc12,"cell growth or viability, SRB",,GI50,17 µM
N=C(N)NCCC[C@H](NC(=O)[C@@H]1CCCN1C(=O)[C@H](CCCNC(=N)N)NC(=O)[C@@H]1CCCN1C(=O)[C@H](CCCNC(=N)N)NC(=O)[C@@H]1CCCN1C(=O)[C@H](CCCNC(=N)N)NC(=O)[C@@H]1CCCN1C(=O)[C@H](CCCNC(=N)N)NC(=O)[C@@H]1CCCN1C(=O)[C@H](CCCNC(=N)N)NC(=O)[C@@H]1CCCN1C(=O)[C@H](CCCNC(=N)N)NC(=O)[C@@H]1CCCN1C(=O)[C@H](CCCNC(=N)N)NC(=O)[C@@H]1CCCN1C(=O)[C@H](CCCNC(=N)N)NC(=O)[C@@H]1CCCN1C(=O)[C@H](CCCNC(=N)N)NC(=O)[C@@H]1CCCN1C(=O)[C@H](CCCNC(=N)N)NC(=O)[C@@H]1CCCN1C(=O)[C@H](CCCNC(=N)N)NC(=O)[C@@H]1CCCN1C(=O)[C@H](CCCNC(=N)N)NC(=O)[C@@H]1CCCN1C(=O)[C@H](CCCNC(=N)N)NC(=O)[C@@H]1CCCN1C(=O)[C@H](CCCNC(=N)N)NC(=O)[C@@H]1CCCN1C(=O)[C@H](CCCNC(=N)N)NC(=O)[C@@H]1CCCN1C(=O)[C@H](CCCNC(=N)N)NC(=O)[C@@H]1CCCN1C(=O)[C@H](CCCNC(=N)N)NC(=O)[C@@H]1CCCN1C(=O)[C@H](CCCNC(=N)N)NC(=O)[C@@H]1CCCN1C(=O)[C@H](CCCNC(=N)N)NC(=O)[C@@H]1CCCN1C(=O)[C@H](CCCNC(=N)N)NC(=O)[C@@H]1CCCN1C(=O)[C@H](CCCNC(=N)N)NC(=O)[C@@H]1CCCN1C(=O)[C@H](CCCNC(=N)N)NC(=O)[C@@H]1CCCN1C(=O)[C@H](Cc1ccc(O)cc1)NC(=O)[C@H](CO)NC(=O)CN)C(=O)O,immunofluorescence,20 µM,fibrillarin localization,no effect
CCCC[N+]1=c2cc3c4cc2[O][Mn-2]1(=[C]=O)(=[C]=O)(=[C]=O)[n+]1ccc(cc1)C(=O)OCCOCCOC(=O)c1cc[n+](cc1)[Mn-2](=[C]=O)(=[C]=O)(=[C]=O)([O]3)[N+]=4CCCC,MTT,"50 µM, 48 h, photolysed compound",viability reduction,78%
CCC(=CCc1c(O)cc2c(c1O)C(=O)CC(c1cc(O)ccc1OC)O2)CC (centres unmarked),"cell growth or viability, MTT","6.25 µM, 48 h",inhibition,7.11%
C[C@@H]1CC[C@@H]([C@](O)(CNCc2cccc(F)c2)COCc2ccccc2)[C@H](OCc2ccccc2)C1,"cell growth or viability, MTT","10 µM, 72 h",inhibition,96.7%
CC[C@H](C)n1cc(C)c2c(C(=O)NCc3c(C)cc(C)[nH]c3=O)cc(-c3ccc(N4CCNCC4)nc3)cc21,"histone methylation reduction, AlphaLISA, measured: H3K27me3",72 h,EC50,0.33 µM
O=[C]=[Mn-2]12(=[C]=O)(=[C]=O)[O]c3cc4c(cc3=[N+]1CCc1ccccc1)[O][Mn-2](=[C]=O)(=[C]=O)(=[C]=O)([N+]=4CCc1ccccc1)[n+]1ccc(cc1)C(=O)OCCOC(=O)c1cc[n+]2cc1,MTT,"50 µM, 48 h, photolysed compound",viability reduction,61%
CCC(=CCc1c(O)cc2c(c1O)C(=O)CC(c1ccc(OC)c(O)c1)O2)CC (centres unmarked),"cell growth or viability, MTT","100 µM, 48 h",inhibition,100%
C[C@@H]1CC[C@@H]([C@](O)(CNCc2ccccc2F)COCc2ccccc2)[C@H](OCc2ccccc2)C1,"cell growth or viability, MTT","10 µM, 72 h",inhibition,98.2%
CCCCCCCCCCCC(=O)N[C@@H](CO)C[C@@H](O)c1cccc(CCCCCC)c1,"CERT activity, HPLC-MS/MS lipidomics, measured: sphingomyelin 16","1 µM, 24 h, not cell-number normalised",sphingomyelin level,591000 pmol/sample and 515000 pmol/sample and 502000 pmol/sample
COc1ccc(C2CC(=O)c3c(cc(O)c(CC=C(C)C)c3O)O2)cc1 (centres unmarked),"cell growth or viability, MTT","1.563 µM, 48 h",inhibition,2.4%
COc1cccc(CNC[C@](O)(COCc2ccccc2)[C@@H]2CC[C@@H](C)C[C@H]2OCc2ccccc2)c1,"cell growth or viability, MTT","10 µM, 72 h",inhibition,99.4%
CC(=S)NCCCC[C@H](NC(=O)OCc1ccccc1)C(=O)N[C@@H](Cc1c[nH]c2ccccc12)C(=O)NC(C)C,"cell growth or viability, MTT",72 h,EC50,27.8 to 40.7 µM
CCC(=CCc1c(O)cc2c(c1O)C(=O)CC(c1c(O)cccc1OC)O2)CC (centres unmarked),"cell growth or viability, MTT","100 µM, 48 h",inhibition,44.1%
C[C@@H]1CC[C@@H]([C@](O)(COCc2ccccc2)Cn2cnc3ccccc32)[C@H](OCc2ccccc2)C1,"cell growth or viability, MTT","10 µM, 72 h",inhibition,97.8%
O=C(/C=C/c1ccccc1)Nc1cc(-c2ccnc(N3CCC(CO)CC3)c2)ccn1,"cell growth or viability, MTT",5 µM,inhibition,76.4%
CCC(=CCc1c(O)cc2c(c1O)C(=O)CC(c1cc(OC)ccc1O)O2)CC (centres unmarked),"cell growth or viability, MTT","1.563 µM, 48 h",inhibition,2.14%
C[C@H]1O[C@@H]2C3=C(O[C@]2(C)[C@@]1(O)C=O)C(=O)c1c(O)cccc1C3=O,"cell growth or viability, MTT",48 h,EC50,22 µM
CCCCCCc1cccc([C@H](O)C[C@H](CO)NC(=O)CCCCCOc2ccc3ccccc3c2)c1,"CERT activity, HPLC-MS/MS lipidomics, measured: sphingomyelin 24","1 µM, 24 h, not cell-number normalised",sphingomyelin level,61000 pmol/sample and 35800 pmol/sample and 58300 pmol/sample
CCC(=CCc1c(O)cc2c(c1O)C(=O)CC(c1cccc(OC)c1O)O2)CC (centres unmarked),"cell growth or viability, MTT","12.5 µM, 48 h",inhibition,19.6%
COc1ccccc1CNC[C@](O)(COCc1ccccc1)[C@@H]1CC[C@@H](C)C[C@H]1OCc1ccccc1,"cell growth or viability, MTT","10 µM, 72 h",inhibition,98.1%
O=C(CCCCCOc1ccc2ccccc2c1)N[C@@H](CO)C[C@@H](O)c1ccc(-c2ccccc2)cc1,"CERT activity, HPLC-MS/MS lipidomics, measured: ceramide 24:1","1 µM, 24 h, not cell-number normalised",ceramide level,19700 pmol/sample and 21500 pmol/sample and 18500 pmol/sample
C[C@@H]1CC[C@@H]([C@@](O)(CNCc2ccc(F)cc2)COCc2ccccc2)[C@H](OCc2ccccc2)C1,"cell growth or viability, MTT","10 µM, 72 h",inhibition,97.7%
CCCCCCCCCCCCNC(=S)NCCCC[C@H](NS(C)(=O)=O)C(=O)N[C@H](C)C(=O)N[C@@H](CCCNC(=N)N)C(N)=O,"cell growth or viability, MTT",72 h,EC50,23.6 to 40.8 µM
C=CCc1c(O)cc2c(c1O)C(=O)CC(c1ccc(O)cc1)O2 (centres unmarked),"cell growth or viability, MTT","0.781 µM, 48 h",inhibition,1.47%
COc1ccc(CNC[C@@](O)(COCc2ccc(F)cc2)[C@@H]2CC[C@@H](C)C[C@H]2OCc2ccc(F)cc2)cc1,"cell growth or viability, MTT","10 µM, 72 h",inhibition,94.2%
